Measurements pooled from the literature.
Each numbered part is a random draw from the data of one study; scales do not carry over between parts.

Block 1 — technique: protein binding microarray; form: double-stranded DNA, one strand shown; matrix: in vitro; concentration: not given; relative to: not given; reading: higher = stronger binding
Target: Histone acetyltransferase KAT6A, winged helix 1, GST fusion (KAT6A, Homo sapiens, UniProt Q92794, residues 1-85)
Notes: 8-mer, flanks averaged, mean of 2 arrays, mostly near background
Residues (chain): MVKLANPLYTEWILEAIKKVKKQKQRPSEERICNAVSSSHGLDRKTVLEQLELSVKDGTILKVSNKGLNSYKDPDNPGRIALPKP
Oligonucleotide	E-score
GCTTTTTA	0.0993
AATCATAG	-0.176
ACGTCAGC	0.0683
AATAGCCC	0.0485
AGACTTGA	-0.263
AAGTTAGA	-0.145
AGCAGACA	-0.321
ATCGTTTA	-0.032
GGGTTGCA	-0.0369
TCGCTCCA	-0.00448
GATAATCA	0.0445
ACCTTTAG	-0.116
GTAACAAC	-0.031

Block 2 — technique: RNA Bind-n-Seq; form: RNA; matrix: in vitro; concentration: 365 nM; relative to: no-protein control; reading: higher = stronger binding
Target: RNA binding protein fox-1 homolog 2, RRM domain, GST-SBP tag (RBFOX2, Homo sapiens, UniProt O43251-10, residues 100-194)
Notes: natural RNA segment, single round, ends assumed
Constant ends, left off below: GGGAGUUCUACAGUCCGACGAUC … UGGAAUUCUCGGGUGCCAA
Oligonucleotide	RBNS enrichment (R)
CACAGCAUUGAGGCCAGCCUGACUGAAGGAUGAUGUGAGGCUGUUUGUCACUUCUGUUCUUUUCCCCGUGGUUGAGACUGCCCACAGGAAAAGGGCUGGCUGCUCUGACA	2.86
AACCCUGUCUUGAGAAAAACCAAUGAACAAAAAGGAAUUCCUUUCUUAAAAACGUUUAAUGCCAGGCUGUGGUCAAAAUCUCUAUUUUAUUUGUUUCUCCAGUAUAUAGC	0.98
UCUUGUCCUUUCCCCUUCAGAUGGAGACUUCAUUAUGUUAAUGAACAAGAUAUGAAGAAAAUGGCACUCAUUGUGGCCUUGUUGAAUUAUGUUGUGUAUGUUUUAACAUC	0.841
AGGCUACAGCCUAAUUAUUUUCCUUUGUCGCCCCUCCUUUUUCUGAUUGAUGGUUGUAUUAUUUUCUCUGAAUCCUCUUCACUGGCCAAAGGUUGGCAGAUAGAGGCUGU	0.725
AAUUGUUCUAGUUAGAAAGGGUUCAGGGCAUGGGGAGAGGAGUGGGAAAUUGAUUAAAGGGGCUGUCUCCCAAUGAAAGAGGCAUUCCCAGAAUUUGCUGCAUUUAGAUU	5.56
GUUACCUGAGUGUGACACAGGCCCUGGGGUGUGCGUGUUUCUCUAACUGUCUACACGUGCACAUAGGCAGACUUUCUCAUAGAAUGUUCUUGAAAGGUGAUUGGCAAAGU	0.741
AAAAAGGAAAUGCAUUAAAUAGAAGGUUGAUAGUUUAUCAUAAACCUGCGGGGAAGAAACUCAGACUUUCUAUUUUUGAUAUUUUGUGCAUUAAUACAUUACAAACAUGA	1.37
GCACCUUGUAAUCAUCAAUACAUCCACCAAAAAUAUAUAAUGUACCAUAUAUAUUAAUAGUCAACAAAUACUCAGAUAUUCUAAGGUCAAUGCCAUUAUUUGAUUAUACC	1.36

Block 3 — technique: RNA Bind-n-Seq; form: RNA; matrix: in vitro; concentration: not given; notes: RNA with constant flanks, ends assumed; relative to: input RNA pool; reading: higher = stronger binding
Target: RING finger protein unkempt homolog, zinc fingers 1-6, GST-SBP tag (UNK, Homo sapiens, UniProt Q9C0B0, residues 30-357)
Chain of UniProt Q9C0B0 (30-357, looked up): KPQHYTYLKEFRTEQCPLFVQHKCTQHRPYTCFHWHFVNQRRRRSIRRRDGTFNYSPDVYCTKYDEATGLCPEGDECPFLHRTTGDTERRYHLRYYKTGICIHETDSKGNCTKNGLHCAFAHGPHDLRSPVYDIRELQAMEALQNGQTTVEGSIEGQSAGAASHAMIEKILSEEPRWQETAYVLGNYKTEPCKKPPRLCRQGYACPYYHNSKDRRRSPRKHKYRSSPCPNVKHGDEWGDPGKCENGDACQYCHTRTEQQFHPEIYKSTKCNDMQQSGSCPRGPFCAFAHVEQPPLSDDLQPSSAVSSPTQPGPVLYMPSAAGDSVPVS
Constant ends, left off below: GGGAGUUCUACAGUCCGACGAUC … CAACAGAGGAUUGAGCAUCA
Oligonucleotide	bound/input enrichment [ratio]
UCAACAGACAACAUCAAAUACCAGCCUAAAGGGGGGCAGGUACAAAUUGUUACCAAGAAAACCGACCUAAGCCAUGUGACAUCCAAAUGUGGCUCUCUGAAGAACAUCCGCCACAGGCCA	0.113
GACAUGGAAACAUAUGAGAGACUGAGAGAAAAACAUGGAGAAGAGUUUUUCCCAACAUCCAACCGUCUUCUUCAUGGAACACAUGUGCCUUCCACAGAGGAAAUUGACAGGAUGGUCAUA	0.188
GAGAAUGUUAUUUAAAGUUGUAUUAUAAUUGCAACCUCCACUAAUUAUUCAGUACUGCCGCAGCAAAGUAUUAUUUGUAAGAAUUUGGUUAUUUUUAUACUUAUAUCCACUCUAAGUCUG	0.234
CUAGAGAUUUACUACAUCCGUCCUUGGAAGAGGAAAAGAAAAAACAUAAAAAGAAACGCCCCGUACAAAGUCCAAAUUCUUACUUUAUGGAUGUAAAAUGUCCAGGUUGCUACAAGAUCA	0.488
AGGUCCAGACACGGGAACGGAGGCCUGGCUGCGUUGCCCUAUCUCCGUCUCCGCCACCCACUCCGCGUUUUAGGCAUCAAUUACCAGCAGUUUCUCCGCCACUAUCUGGAAAAUUACCCG	0.349

Other studies, line by line
Molecule	target	test	test system	conditions	how to read	endpoint	result
PhoQ, residues 284 288 289 292 302 303 ASHLAV	PhoP, residues 12 14 15 18 19 NQFFI (Escherichia coli, UniProt P23836)	Sort-seq, item: YFP reporter	E. coli	PhoQ-PhoP variant library, added: 10 µM Mg2+	relative to: high Mg2+ state, higher = stronger signaling	fold induction	2.59
